# Experimental data pooled from the literature.
# Numbered parts are unrelated; each lists some results of a single study. Positions count from the first letter of the parent shown.
# UniProt Q96BR1, sequence (whole entry, looked up): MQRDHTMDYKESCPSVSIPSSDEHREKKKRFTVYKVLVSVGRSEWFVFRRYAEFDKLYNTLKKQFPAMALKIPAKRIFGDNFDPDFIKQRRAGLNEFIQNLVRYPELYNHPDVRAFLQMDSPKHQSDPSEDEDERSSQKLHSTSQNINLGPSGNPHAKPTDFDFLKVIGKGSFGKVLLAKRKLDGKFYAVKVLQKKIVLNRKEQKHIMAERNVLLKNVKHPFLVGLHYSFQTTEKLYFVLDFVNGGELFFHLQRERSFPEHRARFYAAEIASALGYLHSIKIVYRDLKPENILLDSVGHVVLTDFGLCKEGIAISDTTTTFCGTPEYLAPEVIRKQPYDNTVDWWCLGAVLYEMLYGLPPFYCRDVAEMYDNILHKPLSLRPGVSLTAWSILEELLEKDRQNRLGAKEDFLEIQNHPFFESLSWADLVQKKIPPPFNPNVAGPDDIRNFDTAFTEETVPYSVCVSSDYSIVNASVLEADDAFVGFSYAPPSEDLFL
# UniProt P54756, sequence (whole entry, looked up): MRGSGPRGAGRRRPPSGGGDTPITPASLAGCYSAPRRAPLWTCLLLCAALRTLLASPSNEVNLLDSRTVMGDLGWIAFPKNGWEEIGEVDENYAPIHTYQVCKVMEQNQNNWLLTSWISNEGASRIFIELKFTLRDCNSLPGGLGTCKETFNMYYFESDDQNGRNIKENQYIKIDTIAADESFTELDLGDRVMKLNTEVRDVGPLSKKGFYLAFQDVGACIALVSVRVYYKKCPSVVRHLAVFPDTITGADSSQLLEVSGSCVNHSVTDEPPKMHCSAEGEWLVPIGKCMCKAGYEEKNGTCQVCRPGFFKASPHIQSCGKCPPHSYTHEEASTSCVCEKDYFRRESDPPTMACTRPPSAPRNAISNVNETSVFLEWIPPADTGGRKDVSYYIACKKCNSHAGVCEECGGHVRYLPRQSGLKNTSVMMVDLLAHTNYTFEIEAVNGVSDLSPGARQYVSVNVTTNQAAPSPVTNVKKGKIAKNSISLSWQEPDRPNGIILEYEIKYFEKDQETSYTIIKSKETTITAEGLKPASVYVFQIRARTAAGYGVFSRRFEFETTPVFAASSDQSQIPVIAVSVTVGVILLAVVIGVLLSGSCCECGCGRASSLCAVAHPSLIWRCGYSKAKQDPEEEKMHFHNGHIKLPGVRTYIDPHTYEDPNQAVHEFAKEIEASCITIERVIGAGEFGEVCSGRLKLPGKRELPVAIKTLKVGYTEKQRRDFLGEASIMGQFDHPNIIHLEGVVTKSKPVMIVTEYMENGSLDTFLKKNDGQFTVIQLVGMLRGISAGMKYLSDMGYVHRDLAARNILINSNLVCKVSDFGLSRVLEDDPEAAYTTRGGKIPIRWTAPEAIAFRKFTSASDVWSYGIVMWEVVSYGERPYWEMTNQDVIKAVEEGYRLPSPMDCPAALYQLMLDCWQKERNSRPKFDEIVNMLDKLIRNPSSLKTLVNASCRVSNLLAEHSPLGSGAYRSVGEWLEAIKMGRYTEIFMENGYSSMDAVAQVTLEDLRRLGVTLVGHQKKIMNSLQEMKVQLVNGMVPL
# UniProt P10721, sequence (whole entry, unmodified, looked up): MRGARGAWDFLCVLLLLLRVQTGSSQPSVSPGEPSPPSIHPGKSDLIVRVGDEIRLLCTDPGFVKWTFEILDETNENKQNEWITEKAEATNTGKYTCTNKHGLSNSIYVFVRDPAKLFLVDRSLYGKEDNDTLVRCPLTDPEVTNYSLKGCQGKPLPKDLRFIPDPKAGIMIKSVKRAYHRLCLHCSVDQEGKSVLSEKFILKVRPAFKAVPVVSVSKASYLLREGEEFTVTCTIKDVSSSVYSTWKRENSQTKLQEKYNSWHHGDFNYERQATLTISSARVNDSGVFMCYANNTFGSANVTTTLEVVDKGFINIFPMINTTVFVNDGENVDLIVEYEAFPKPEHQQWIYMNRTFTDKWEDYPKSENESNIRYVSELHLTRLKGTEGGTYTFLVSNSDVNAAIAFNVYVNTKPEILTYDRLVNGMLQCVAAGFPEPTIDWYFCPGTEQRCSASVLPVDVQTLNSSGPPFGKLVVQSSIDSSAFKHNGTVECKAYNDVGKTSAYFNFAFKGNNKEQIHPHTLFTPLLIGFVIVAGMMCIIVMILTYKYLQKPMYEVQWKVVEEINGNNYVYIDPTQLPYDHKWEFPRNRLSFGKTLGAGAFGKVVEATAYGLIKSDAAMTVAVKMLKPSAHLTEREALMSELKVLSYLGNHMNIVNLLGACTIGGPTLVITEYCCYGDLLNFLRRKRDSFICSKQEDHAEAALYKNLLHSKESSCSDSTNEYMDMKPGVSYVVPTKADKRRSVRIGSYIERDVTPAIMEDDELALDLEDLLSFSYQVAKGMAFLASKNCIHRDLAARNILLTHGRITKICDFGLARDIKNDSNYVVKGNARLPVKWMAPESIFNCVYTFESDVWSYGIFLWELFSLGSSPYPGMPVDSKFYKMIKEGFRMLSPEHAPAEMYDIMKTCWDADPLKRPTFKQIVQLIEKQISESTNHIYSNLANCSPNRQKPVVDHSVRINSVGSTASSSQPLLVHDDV
# UniProt Q9HAZ1, sequence (whole entry, looked up): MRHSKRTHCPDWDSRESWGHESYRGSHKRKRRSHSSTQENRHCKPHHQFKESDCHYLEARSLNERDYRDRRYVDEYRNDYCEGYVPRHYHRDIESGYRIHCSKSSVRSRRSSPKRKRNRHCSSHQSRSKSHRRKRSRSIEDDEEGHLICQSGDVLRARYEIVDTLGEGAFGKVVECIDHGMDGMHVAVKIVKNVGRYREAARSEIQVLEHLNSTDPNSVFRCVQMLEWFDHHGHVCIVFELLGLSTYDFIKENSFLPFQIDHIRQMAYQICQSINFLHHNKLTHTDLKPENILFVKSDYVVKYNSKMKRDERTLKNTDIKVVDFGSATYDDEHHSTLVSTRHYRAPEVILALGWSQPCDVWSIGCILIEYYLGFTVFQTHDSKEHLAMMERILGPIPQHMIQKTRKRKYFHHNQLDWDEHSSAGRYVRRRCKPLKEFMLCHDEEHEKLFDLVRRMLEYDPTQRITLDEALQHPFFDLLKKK

# Study 1
# Target: Histone acetyltransferase KAT6A, winged helix 1, GST fusion (KAT6A, Homo sapiens, UniProt Q92794, residues 1-85)
# Method: protein binding microarray
# Molecule type: double-stranded DNA, one strand shown
# Matrix: in vitro
# Tested at: not given
# Notes: 8-mer, flanks averaged, mean of 2 arrays, mostly near background
# Baseline: not given
# Direction: higher = stronger binding
# Construct (chain): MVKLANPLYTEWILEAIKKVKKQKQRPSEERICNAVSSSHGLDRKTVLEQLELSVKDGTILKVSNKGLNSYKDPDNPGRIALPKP
Sequence,E-score
AAAGCTCT,-0.0172
TGCACCAA,-0.308
AGATGAGG,-0.258
GTGGAGTA,-0.179
CTCCTAAG,-0.0886
AACAGAGA,-0.0641
ATAGTGCA,-0.101
GAGTCACC,-0.0406

# Study 2
# SMILES: CN1CCN(c2cnc3c(C4CCN(C(=O)c5ccc(OC(F)(F)F)cc5N)CC4)ncnc3c2)CC1
# Observed: cell-free assay
# Method: competition with immobilised ligand
# Tested at: 1 µM
target,remaining binding [%]
"Ephrin type-A receptor 5 (EPHA5, Homo sapiens, UniProt P54756)",91
"Dual specificity protein kinase CLK4 (CLK4, Homo sapiens, UniProt Q9HAZ1)",98
"Mast/stem cell growth factor receptor Kit (KIT, Homo sapiens, UniProt P10721, D816V)",100
"Serine/threonine-protein kinase Sgk3 (SGK3, Homo sapiens, UniProt Q96BR1)",100
"Tyrosine-protein kinase ABL1, non-phosphorylated (ABL1, Homo sapiens, UniProt P00519, H396P)",76

# Study 3
# Target: MAP/microtubule affinity-regulating kinase 3 (MARK3, Homo sapiens, UniProt P27448)
# UniProt P27448, sequence (whole entry, looked up): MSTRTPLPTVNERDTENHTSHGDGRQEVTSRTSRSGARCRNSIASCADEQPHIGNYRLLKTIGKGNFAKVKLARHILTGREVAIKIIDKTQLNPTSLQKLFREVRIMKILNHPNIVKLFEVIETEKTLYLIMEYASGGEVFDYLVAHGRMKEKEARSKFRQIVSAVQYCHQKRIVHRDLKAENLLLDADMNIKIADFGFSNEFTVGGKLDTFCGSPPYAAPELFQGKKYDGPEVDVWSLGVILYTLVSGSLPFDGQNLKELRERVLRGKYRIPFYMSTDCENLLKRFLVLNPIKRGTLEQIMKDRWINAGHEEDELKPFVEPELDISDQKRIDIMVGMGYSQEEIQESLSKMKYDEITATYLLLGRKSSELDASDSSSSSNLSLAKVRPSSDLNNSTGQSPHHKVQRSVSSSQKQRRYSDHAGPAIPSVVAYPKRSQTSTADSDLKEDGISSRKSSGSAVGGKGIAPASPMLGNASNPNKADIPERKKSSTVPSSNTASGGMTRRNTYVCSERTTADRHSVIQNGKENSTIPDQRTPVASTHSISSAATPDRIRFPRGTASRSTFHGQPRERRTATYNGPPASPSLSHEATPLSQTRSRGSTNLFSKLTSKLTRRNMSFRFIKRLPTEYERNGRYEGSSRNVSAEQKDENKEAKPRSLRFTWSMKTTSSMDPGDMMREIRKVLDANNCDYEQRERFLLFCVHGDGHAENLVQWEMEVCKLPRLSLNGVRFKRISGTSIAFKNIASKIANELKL
# Observed: enzyme activity
# Mode: inhibitor
# Tested at: 0.5 µM
# Baseline: control
Structure (SMILES),remaining activity [%]
COc1ccc(OC)c2c(=S)c3ccccc3[nH]c12,96.7
O=C1NC(=O)C(c2cn(CCCO)c3ncccc23)=C1c1cnccn1,87.8
O=C(Nc1cccc(Nc2cc(Nc3cccc(C(F)(F)F)c3)ncn2)c1)C1CC1,105
NCCNc1ncc(C(N)=O)c(Nc2cccc(C(F)(F)F)c2)n1,86.7
Nc1[nH]nc2nc3ccccc3nc12,102
C#Cc1cccc(Nc2ncnc3cc(OCCOC)c(OCCOC)cc23)c1,96.4
CCOC(=O)c1c(C)[nH]c(/C=C2\C(=O)Nc3ccccc32)c1C,99.8
O=C(O)c1ccc2c3c1cccc3c(=O)n1c3ccccc3nc21,82.6
COc1cc2nccc(Oc3ccc(NC(=S)NC(=O)c4ccccc4C)cc3)c2cc1OC,79.2
CO[C@H]1C[C@@H]2CC[C@@H](C)[C@@](O)(O2)C(=O)C(=O)N2CCCC[C@H]2C(=O)O[C@H]([C@H](C)C[C@@H]2CC[C@@H](O)[C@H](OC)C2)CC(=O)[C@H](C)/C=C(\C)[C@@H](O)[C@@H](OC)C(=O)[C@H](C)C[C@H](C)/C=C/C=C/C=C/1C,99
CNC(=O)c1cc(Oc2ccc(NC(=O)Nc3ccc(Cl)c(C(F)(F)F)c3)cc2)ccn1,103
COc1ccc(C(=O)Nc2sc3c(c2C(N)=O)CCCC3)cc1OC,94.1
COc1ccc(CNC(=O)Nc2ncc([N+](=O)[O-])s2)cc1,105
Nc1ccc2ncnc(NCCc3ccc(Oc4ccccc4)cc3)c2c1,86.4
CN(C)c1ccc(C=C2C(=O)Nc3ccccc32)cc1,101

# Study 4
# Target: CREM, bZIP domain (human)
# Method: DHFR protein complementation
# Matrix: yeast
# Notes: single substitutions, most at no-binding floor
# Baseline: wild-type JUN-FOS pair
# Direction: higher = stronger binding
# Parent: JUN, bZIP domain (human); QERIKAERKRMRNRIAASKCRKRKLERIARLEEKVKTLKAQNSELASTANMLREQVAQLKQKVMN; partner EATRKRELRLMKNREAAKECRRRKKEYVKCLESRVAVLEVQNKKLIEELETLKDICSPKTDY
Change,binding fitness
E33D,-1.49 natural log
L38A,-1.56 natural log
L31D,-1.26 natural log
A57L,-1.45 natural log
E54A,-1.45 natural log
E32T,-1.48 natural log
T37N,-1.43 natural log
T48H,-1.37 natural log
